{"data": "Measurements pooled from the literature", "note": "Every numbered part comes from another study and shows a few of its results, in no order."}
{"data": "Block 1", "target": "TAR DNA-binding protein 43, full length, His tag (TARDBP, Homo sapiens, UniProt Q13148, residues 1-414)", "technique": "RNA Bind-n-Seq", "form": "RNA", "sample": "in vitro", "tested at": "20 nM", "notes": "6-mer, flanks averaged, single round", "added": "150 mM KCl", "relative to": "input library", "direction": "higher = stronger binding"}
{"Oligonucleotide": "GCCGUC", "6-mer enrichment (R)": 0.831}
{"Oligonucleotide": "UACACC", "6-mer enrichment (R)": 0.68}
{"Oligonucleotide": "UCUCCA", "6-mer enrichment (R)": 0.577}
{"Oligonucleotide": "GUCCAA", "6-mer enrichment (R)": 0.699}
{"Oligonucleotide": "UACAUG", "6-mer enrichment (R)": 0.676}
{"Oligonucleotide": "UAAUCA", "6-mer enrichment (R)": 0.585}
{"Oligonucleotide": "CACGAC", "6-mer enrichment (R)": 0.681}
{"Oligonucleotide": "CUGACA", "6-mer enrichment (R)": 0.671}
{"Oligonucleotide": "UCGACC", "6-mer enrichment (R)": 0.622}
{"Oligonucleotide": "AUGCAU", "6-mer enrichment (R)": 0.741}
{"Oligonucleotide": "AUCCUU", "6-mer enrichment (R)": 0.579}
{"Oligonucleotide": "GCCGGG", "6-mer enrichment (R)": 3.73}
{"Oligonucleotide": "CAUCAU", "6-mer enrichment (R)": 0.57}
{"Oligonucleotide": "UAAGCA", "6-mer enrichment (R)": 0.657}
{"Oligonucleotide": "CUCGAG", "6-mer enrichment (R)": 0.845}
{"Oligonucleotide": "GCAUUU", "6-mer enrichment (R)": 0.648}
{"data": "Block 2", "target": "Ras GTPase-activating protein-binding protein 1, full length (G3BP1, Homo sapiens, UniProt Q13283)", "technique": "RNA Bind-n-Seq", "form": "RNA", "sample": "in vitro", "tested at": "200 nM", "notes": "whole 134-nt RNA, ends assumed", "added": "150 mM KCl", "relative to": "input library", "direction": "higher = stronger binding", "sequence of UniProt Q13283 (whole entry, looked up)": "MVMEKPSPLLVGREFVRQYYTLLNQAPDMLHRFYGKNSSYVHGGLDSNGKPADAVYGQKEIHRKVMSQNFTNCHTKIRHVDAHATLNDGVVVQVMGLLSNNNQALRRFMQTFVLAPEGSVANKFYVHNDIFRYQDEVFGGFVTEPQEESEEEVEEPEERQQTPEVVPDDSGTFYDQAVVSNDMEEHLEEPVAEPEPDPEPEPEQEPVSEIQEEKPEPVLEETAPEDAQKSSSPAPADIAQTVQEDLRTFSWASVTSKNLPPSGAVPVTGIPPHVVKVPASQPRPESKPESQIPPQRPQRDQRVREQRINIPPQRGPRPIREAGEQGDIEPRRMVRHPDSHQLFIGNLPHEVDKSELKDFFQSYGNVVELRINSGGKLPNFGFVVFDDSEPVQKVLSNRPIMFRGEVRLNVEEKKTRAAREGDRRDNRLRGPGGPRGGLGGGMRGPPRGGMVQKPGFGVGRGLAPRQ"}
{"Oligonucleotide": "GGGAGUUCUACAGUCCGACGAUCUCCUGUGCUACACAUCGUAUGUACCGAAUCGGGGUUUUUGGGGAGGGGAAAAAAAGGGGAAAGUAUUAUGUUACGCCGUUCGGAUCUGCAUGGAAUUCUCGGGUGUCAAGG", "log2 enrichment": 0.429}
{"Oligonucleotide": "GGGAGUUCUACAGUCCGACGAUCUGGGCGGUGGAUUUUGUUUAUUUUUUUAGCUCAUUUCCAGGGGUGGGAAUUUUUUUUUAAUAUGUGUCAUGAAUAAAGUUGUUUUUGAAAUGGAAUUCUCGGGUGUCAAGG", "log2 enrichment": 0.394}
{"Oligonucleotide": "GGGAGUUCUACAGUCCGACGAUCACCAUGCAGGUGGGCAUCUUUGGGAAGUGGGGCAAGGGGGGGAUAGGGAGGGGGGUAACACUUUGGGAACAUGUGGUCCCAGGUCGUUUCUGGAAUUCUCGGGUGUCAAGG", "log2 enrichment": 1.09}
{"Oligonucleotide": "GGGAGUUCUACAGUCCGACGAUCAGUCCUGUGCUACACAUCGUAUGUACCGAAUCGGGCCCCGGCCCCGGGGCCCCGGGGAAAGUAUUAUGUUACGCCGUUCGGAUCUGCACUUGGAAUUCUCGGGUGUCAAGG", "log2 enrichment": -1.56}
{"Oligonucleotide": "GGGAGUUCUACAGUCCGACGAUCUCAAGUCCUGUGCUACACAUCGUAUGUACCGAAUCGGUUUGGGUUUGGGUUUGGAAAGUAUUAUGUUACGCCGUUCGGAUCUGCACUUCCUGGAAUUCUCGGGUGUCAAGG", "log2 enrichment": -0.671}
{"Oligonucleotide": "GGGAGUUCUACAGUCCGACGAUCAAGUCCUGUGCUACACAUCGUAUGUACCGAAUCGGGAAAAGGGGAAAAGGGAAAAGGAAAGUAUUAUGUUACGCCGUUCGGAUCUGCACUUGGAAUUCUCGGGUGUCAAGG", "log2 enrichment": -0.532}
{"Oligonucleotide": "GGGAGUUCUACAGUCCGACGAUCUGGCCCUGGUGGCAUGCGGGGAGGAAGAGGUGGCCUCAUGGAUCGUGGUGGUCCCGGUGUAAUGUUCAGAGGUGGCCGUGGUGGAGACAGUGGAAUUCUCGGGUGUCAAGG", "log2 enrichment": 0.091}
{"Oligonucleotide": "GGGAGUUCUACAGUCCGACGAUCUGGGAGGUGGAUUUUGUUUAUUUUUUUAGCUCAUUUCCAGGGGUGGGAAUUUUUUUUUAAUAUGUGUCAUGAAUAAAGUUGCUUUUGAAAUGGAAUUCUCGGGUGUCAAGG", "log2 enrichment": 0.216}
{"Oligonucleotide": "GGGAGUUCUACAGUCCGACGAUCCAAGUCCUGUGCUACACAUCGUAUGUACCGAAUCGGGGAAAGGGGAAAGGGAAAGGAAAGUAUUAUGUUACGCCGUUCGGAUCUGCACUUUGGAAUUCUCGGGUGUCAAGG", "log2 enrichment": -0.0499}
{"Oligonucleotide": "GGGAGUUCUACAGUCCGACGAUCAAGUCCUGUGCUACACAUCGUAUGUACCGAAUCGGUUUUUUUGGUUUUUGGAAAGGAAAGUAUUAUGUUACGCCGUUCGGAUCUGCACUUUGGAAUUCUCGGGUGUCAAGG", "log2 enrichment": -1.56}
{"data": "Block 3", "target": "Histone acetyltransferase KAT6A, winged helix 2, GST fusion (KAT6A, Homo sapiens, UniProt Q92794, residues 85-181)", "technique": "protein binding microarray", "form": "double-stranded DNA, one strand shown", "sample": "in vitro", "tested at": "not given", "notes": "8-mer, flanks averaged, mean of 2 arrays, mostly near background", "relative to": "not given", "direction": "higher = stronger binding", "Residues (chain)": "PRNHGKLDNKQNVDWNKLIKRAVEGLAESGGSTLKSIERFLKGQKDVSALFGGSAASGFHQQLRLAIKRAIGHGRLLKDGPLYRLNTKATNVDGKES"}
{"Oligonucleotide": "AGTGAGTG", "E-score": 0.0419}
{"Oligonucleotide": "CTAGACCC", "E-score": -0.12}
{"Oligonucleotide": "CCTCGGTC", "E-score": -0.114}
{"Oligonucleotide": "AATCCTCC", "E-score": -0.126}
{"Oligonucleotide": "TAAGGATA", "E-score": -0.0836}
{"Oligonucleotide": "AAGTAGGC", "E-score": 0.0247}
{"Oligonucleotide": "CGTAAGTA", "E-score": -0.216}
{"Oligonucleotide": "AGTTGTCG", "E-score": 0.115}
{"Oligonucleotide": "CATGCCAA", "E-score": -0.1}
{"Oligonucleotide": "AACTAACT", "E-score": -0.142}
{"Oligonucleotide": "AATAGCCA", "E-score": 0.0418}
{"Oligonucleotide": "GTGTCGCA", "E-score": -0.0574}
{"Oligonucleotide": "GCGGACGA", "E-score": 0.284}
{"Oligonucleotide": "CGCTTTGC", "E-score": 0.159}
{"Oligonucleotide": "GCGATTGA", "E-score": -0.0337}
{"Oligonucleotide": "AATCGACC", "E-score": -0.0645}
{"Oligonucleotide": "GCCCCTCC", "E-score": 0.0605}
{"Oligonucleotide": "ATACGAGC", "E-score": 0.0501}
{"data": "Block 4", "target": "RNA binding protein fox-1 homolog 2, RRM domain, GST-SBP tag (RBFOX2, Homo sapiens, UniProt O43251-10, residues 100-194)", "technique": "RNA Bind-n-Seq", "form": "RNA", "sample": "in vitro", "tested at": "365 nM", "notes": "natural RNA segment, single round, ends assumed", "relative to": "no-protein control", "direction": "higher = stronger binding", "Construct (chain)": "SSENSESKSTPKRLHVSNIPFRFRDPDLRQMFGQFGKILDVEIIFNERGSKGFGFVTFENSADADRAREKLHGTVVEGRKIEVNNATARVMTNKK"}
{"Oligonucleotide": "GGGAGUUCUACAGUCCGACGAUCAAAUAAGGAAAAUGAUACUGCUGGUUGGUUCCUGCUAGCAUCUCUGAACAAAGGACAAAGGGAAAGAAUGCGCUGCUUGAUAAAAUUAACCAAAUUCUAGCAUCUCAGAGUGGAAUUCUCGGGUGCCAA", "RBNS enrichment (R)": 2.86}
{"Oligonucleotide": "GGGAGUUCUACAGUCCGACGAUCUGACAGAAGCUGGGCAUCAGUGAUCUGUUGUGUUGGAUUAAUAGGUCCUUCCCCAAAUGGGACCUGAGGAAAUAGCAGGUGUCCAGCUGAUGUGUUGGGCCUUUUCUAGGUGGAAUUCUCGGGUGCCAA", "RBNS enrichment (R)": 0.218}
{"Oligonucleotide": "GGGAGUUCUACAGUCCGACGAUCUUUGUACAUUUUUGUAUGUUAAUUUAUGAAUGAUUUUUUCAGUAAAAAAUACAUAUUCAAUAACCAACCUUGGUAGUCGUCUCUCUGUCUAGCUGCCUCUCAGGGUGGUUUGGAAUUCUCGGGUGCCAA", "RBNS enrichment (R)": 0.487}
{"Oligonucleotide": "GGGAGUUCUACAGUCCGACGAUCUGCAGGCAAAGGAAACCCUCUGCUGCUUCCUUCCCCAGGAGCCAGGUGGGCACUGAAUGUGGUUUUUAGAUUUUUGUAUUGUGGACUGUCUUUGCCUCAUAUUAAAAACUUGGAAUUCUCGGGUGCCAA", "RBNS enrichment (R)": 1.15}
{"Oligonucleotide": "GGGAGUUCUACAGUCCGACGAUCUACAACUCUGAUUUUAAAACAAAAAAAUCUUUACAACAAGCUAUAUAGGGACAUACCAGAUGUUGCAGUGAUUUUAGCUAUCAACAAACUGUUAACCAUGUACAAUAUUUUGGAAUUCUCGGGUGCCAA", "RBNS enrichment (R)": 0.518}
{"Oligonucleotide": "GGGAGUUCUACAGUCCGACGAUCUCCUGCUUUGAAAACUCACGCUGGCUGCUUCACUGCCCUGAGAUUCAGUGAGACACGCAGUUUGUGUUCAGUUUUUACAUCCUCUGAUUGUUUAUCUUGUGCAGAUAAACUGGAAUUCUCGGGUGCCAA", "RBNS enrichment (R)": 0.263}
{"Oligonucleotide": "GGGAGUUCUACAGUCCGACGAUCCAGUAGCAUGUAAUGCAACUGUUUGACAGUUUAACUCAAUUCAUGCUUCAAACUGUUUUAAUCAUCAAACCAAGUCACUGUUCAUUUUCAUCUUCUUGUACAGUUUUUGUUGGAAUUCUCGGGUGCCAA", "RBNS enrichment (R)": 0.657}
{"Oligonucleotide": "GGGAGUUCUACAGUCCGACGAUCCUUUCUUCACAUUCCCACUCCCAUAUUUACACGGGUCACUCUGACUCAGACAGGUACUAUUUGUAAGUAGCAUAGACAGCAGGGGGGUGGGGUGGUCAACCUGUGUCCCCUGGAAUUCUCGGGUGCCAA", "RBNS enrichment (R)": 0.337}
{"Oligonucleotide": "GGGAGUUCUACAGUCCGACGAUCAAAUGACAAAACCCUCAGUUGAGCCUGAGCCCCCGGCGCGGGGGCUGCUACACUACAGGACACCCAGCAUCGGCUUUGACUGCAGACUGUUCACCCACACGAGCCCUGUGUGGAAUUCUCGGGUGCCAA", "RBNS enrichment (R)": 0.372}
{"Oligonucleotide": "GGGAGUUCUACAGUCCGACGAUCUUGGCAAUACCCUGUGGAUCUGAAACAGCUAAAAAAAUGAAUUUGAAUUGCGCCAGAUAGGUCAAUACCAAGCUUCUGAUUCCUCCUCACAUAUGAAAAGUGAAAGUUGUUGGAAUUCUCGGGUGCCAA", "RBNS enrichment (R)": 0.504}
{"Oligonucleotide": "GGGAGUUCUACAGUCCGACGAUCGACUCUGUCCACCGGGGCCCUCCCAGGGCUGUGAGGACGGAAACAGGCAGGGAGUGGAGCUAACAGCUUAGUCACCAGGACCCCCAGACCUGCAAACGUCCCCUCCUGGAUGGAAUUCUCGGGUGCCAA", "RBNS enrichment (R)": 0.312}
{"Oligonucleotide": "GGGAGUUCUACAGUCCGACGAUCUUAAGAAUGUAAAGUGAUUCUGUAUCAAUGUAAAUAAGAUGAUCUACUACAAAAGAUAUUUAAAAUCAAAAUUGUGGUCAUUUCUUCUUUGAGAGUUCAAAGUAGCUUCUUGGAAUUCUCGGGUGCCAA", "RBNS enrichment (R)": 0.493}
{"note": "Some of these lines once more (block 1):"}
{"Oligonucleotide": "GUCCAA", "6-mer enrichment (R)": 0.699}
{"Oligonucleotide": "UACAUG", "6-mer enrichment (R)": 0.676}
{"Oligonucleotide": "UAAUCA", "6-mer enrichment (R)": 0.585}
